Results gathered from unrelated publications.
Numbered parts are unrelated; each lists some results of a single study.
UniProt Q9H2K8, sequence (whole entry, looked up): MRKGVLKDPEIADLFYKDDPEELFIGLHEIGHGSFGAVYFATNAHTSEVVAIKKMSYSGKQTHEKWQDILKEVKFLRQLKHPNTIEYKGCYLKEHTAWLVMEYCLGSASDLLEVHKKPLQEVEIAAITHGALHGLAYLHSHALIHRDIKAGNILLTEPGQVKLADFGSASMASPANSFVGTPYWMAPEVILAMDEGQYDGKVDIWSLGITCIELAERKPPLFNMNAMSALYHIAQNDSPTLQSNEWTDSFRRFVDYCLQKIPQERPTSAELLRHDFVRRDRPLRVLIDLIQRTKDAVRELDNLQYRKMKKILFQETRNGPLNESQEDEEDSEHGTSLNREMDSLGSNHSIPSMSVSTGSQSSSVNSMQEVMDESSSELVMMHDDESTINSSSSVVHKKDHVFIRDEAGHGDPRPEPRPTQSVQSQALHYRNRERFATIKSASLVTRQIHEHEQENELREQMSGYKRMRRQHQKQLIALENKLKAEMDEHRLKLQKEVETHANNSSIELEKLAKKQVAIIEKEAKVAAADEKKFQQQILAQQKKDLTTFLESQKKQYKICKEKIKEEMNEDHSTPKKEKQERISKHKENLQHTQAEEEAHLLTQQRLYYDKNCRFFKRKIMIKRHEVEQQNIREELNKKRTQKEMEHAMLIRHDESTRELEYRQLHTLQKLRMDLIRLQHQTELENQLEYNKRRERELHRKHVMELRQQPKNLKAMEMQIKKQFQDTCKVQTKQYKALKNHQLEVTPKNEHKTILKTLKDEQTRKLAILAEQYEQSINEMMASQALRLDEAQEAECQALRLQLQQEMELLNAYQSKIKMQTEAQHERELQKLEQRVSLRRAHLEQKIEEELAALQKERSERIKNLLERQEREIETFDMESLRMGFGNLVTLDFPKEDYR
UniProt P37023, sequence (whole entry, looked up): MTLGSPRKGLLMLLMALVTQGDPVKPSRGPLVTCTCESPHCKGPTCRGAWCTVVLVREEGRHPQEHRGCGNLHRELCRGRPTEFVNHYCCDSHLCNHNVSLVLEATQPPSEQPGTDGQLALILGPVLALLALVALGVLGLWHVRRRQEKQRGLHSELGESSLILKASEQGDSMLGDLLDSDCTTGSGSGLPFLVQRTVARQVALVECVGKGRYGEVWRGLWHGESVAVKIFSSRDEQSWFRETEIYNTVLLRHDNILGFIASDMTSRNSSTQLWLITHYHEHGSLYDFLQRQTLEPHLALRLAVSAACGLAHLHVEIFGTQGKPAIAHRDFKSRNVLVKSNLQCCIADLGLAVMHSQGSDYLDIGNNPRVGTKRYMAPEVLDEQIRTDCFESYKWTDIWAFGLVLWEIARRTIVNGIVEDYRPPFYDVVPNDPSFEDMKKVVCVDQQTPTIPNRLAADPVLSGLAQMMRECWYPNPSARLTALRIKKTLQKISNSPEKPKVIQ
UniProt Q59H18, sequence (whole entry, looked up): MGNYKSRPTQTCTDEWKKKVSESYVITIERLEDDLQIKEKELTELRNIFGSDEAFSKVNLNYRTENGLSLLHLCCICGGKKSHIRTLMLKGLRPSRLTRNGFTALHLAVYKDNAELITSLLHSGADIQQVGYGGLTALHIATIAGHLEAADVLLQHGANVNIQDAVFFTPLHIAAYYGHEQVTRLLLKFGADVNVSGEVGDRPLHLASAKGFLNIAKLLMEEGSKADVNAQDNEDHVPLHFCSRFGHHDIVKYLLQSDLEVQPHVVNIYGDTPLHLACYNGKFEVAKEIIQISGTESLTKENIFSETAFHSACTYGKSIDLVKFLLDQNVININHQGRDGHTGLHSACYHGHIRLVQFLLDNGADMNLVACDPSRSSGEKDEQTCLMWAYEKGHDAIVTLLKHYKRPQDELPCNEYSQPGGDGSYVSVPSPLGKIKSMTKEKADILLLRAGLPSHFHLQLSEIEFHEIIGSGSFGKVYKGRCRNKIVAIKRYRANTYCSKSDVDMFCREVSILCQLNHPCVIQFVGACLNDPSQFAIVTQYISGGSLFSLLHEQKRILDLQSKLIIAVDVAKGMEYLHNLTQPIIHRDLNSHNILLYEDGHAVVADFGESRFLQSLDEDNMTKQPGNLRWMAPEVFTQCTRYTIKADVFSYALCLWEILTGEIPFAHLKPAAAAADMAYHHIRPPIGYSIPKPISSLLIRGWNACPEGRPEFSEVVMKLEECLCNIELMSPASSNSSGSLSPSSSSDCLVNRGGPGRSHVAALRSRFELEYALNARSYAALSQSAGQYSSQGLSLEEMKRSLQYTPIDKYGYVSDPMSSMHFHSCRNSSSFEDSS
UniProt P23443, sequence (whole entry, looked up): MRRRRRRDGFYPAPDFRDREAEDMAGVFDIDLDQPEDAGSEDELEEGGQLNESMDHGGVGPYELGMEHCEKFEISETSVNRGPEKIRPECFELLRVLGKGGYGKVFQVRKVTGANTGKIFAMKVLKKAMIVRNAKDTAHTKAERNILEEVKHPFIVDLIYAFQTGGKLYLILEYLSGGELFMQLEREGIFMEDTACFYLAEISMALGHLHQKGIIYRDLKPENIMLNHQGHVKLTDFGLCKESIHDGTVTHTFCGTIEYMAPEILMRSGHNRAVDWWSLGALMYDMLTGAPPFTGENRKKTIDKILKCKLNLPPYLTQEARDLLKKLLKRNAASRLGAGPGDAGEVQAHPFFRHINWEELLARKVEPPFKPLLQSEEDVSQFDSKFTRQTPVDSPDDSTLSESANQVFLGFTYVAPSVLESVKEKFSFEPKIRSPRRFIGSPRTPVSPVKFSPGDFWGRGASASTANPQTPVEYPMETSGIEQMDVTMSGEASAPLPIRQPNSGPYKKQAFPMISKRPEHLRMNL
UniProt Q9H2X6, sequence (whole entry, looked up): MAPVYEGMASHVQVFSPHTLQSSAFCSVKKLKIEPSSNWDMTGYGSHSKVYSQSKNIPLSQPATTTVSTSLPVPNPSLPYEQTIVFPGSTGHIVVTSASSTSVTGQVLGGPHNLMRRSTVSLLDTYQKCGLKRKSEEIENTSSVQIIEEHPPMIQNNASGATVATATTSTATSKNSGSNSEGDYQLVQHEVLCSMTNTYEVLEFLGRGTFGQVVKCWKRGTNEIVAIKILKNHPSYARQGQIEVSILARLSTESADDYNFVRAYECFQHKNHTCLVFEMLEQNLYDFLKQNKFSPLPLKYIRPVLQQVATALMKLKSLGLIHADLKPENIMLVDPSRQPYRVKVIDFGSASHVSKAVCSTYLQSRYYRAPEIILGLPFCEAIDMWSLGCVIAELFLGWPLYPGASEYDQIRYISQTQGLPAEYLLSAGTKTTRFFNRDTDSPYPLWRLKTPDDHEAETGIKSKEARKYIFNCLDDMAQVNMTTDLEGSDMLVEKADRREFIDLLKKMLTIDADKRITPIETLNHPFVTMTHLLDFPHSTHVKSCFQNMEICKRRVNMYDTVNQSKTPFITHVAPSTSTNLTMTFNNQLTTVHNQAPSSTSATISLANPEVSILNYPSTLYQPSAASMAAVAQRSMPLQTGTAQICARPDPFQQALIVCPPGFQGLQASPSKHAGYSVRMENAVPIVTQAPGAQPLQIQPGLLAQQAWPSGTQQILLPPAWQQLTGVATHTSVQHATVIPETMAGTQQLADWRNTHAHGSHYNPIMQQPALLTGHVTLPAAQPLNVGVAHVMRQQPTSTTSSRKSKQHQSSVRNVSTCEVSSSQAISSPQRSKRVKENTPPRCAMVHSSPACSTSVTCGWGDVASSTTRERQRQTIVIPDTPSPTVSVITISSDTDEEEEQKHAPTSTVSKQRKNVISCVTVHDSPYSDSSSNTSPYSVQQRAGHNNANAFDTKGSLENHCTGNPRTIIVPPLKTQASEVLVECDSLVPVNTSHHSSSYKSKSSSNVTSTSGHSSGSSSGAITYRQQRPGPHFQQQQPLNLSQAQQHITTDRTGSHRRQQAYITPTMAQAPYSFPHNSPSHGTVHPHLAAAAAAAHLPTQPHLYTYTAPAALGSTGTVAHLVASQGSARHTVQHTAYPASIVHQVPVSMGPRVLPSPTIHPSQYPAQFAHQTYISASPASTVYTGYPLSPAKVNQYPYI
UniProt Q8N568, sequence (whole entry, looked up): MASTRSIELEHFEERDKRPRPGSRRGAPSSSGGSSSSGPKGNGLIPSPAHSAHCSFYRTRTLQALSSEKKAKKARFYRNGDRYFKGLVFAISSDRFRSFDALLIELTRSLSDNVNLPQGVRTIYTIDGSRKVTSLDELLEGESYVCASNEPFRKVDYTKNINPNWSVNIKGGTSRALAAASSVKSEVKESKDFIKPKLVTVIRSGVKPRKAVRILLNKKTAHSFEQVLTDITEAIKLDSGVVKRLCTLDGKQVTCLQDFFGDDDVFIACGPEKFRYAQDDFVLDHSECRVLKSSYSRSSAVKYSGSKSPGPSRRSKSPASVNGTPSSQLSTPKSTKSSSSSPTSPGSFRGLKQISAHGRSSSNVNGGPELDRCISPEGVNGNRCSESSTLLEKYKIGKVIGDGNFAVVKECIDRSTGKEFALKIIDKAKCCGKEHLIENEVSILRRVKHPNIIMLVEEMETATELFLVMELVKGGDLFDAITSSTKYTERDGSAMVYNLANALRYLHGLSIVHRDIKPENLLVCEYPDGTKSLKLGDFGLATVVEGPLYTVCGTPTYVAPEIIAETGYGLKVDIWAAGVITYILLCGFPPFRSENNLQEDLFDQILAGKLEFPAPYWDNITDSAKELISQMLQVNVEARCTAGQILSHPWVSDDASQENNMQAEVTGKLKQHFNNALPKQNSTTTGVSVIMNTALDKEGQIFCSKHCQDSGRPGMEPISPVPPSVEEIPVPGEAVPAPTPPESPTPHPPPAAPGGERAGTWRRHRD

Block 1
SMILES: O=C1NC(=O)c2c1c1c3ccccc3[nH]c1c1[nH]c3cc(Br)ccc3c21
Read-out: enzyme activity
Action: inhibitor
Concentration: 0.5 µM
Relative to: control
| target | remaining activity [%] |
| --- | --- |
| RPS6KA1 (Homo sapiens, UniProt Q15418) | 58.4 |
| FGFR4 (Homo sapiens, UniProt P22455) | 90.6 |
| SRPK3 (Homo sapiens, UniProt Q9UPE1) | 89.2 |
| PAK2 (Homo sapiens, UniProt Q13177) | 101 |
| NUAK1 (Homo sapiens, UniProt O60285) | 14.3 |
| BMX (Homo sapiens, UniProt P51813) | 92 |
| PRKCG (Homo sapiens, UniProt P05129) | 76.6 |
| RPS6KB1 (Homo sapiens, UniProt P23443) | 45.2 |

Block 2
Cell line: HH
Concentration: 2 µM
Time: 48 h
Relative to: untreated
| SMILES | viability |
| --- | --- |
| C=CC(=O)N1CCC[C@@H](n2nc(-c3ccc(Oc4ccccc4)cc3)c3c(N)ncnc32)C1 | 52.9% |
| CO[C@H]1C[C@@H]2CC[C@@H](C)[C@@](O)(O2)C(=O)C(=O)N2CCCC[C@H]2C(=O)O[C@H]([C@H](C)C[C@@H]2CC[C@@H](OP(C)(C)=O)[C@H](OC)C2)CC(=O)[C@H](C)/C=C(\C)[C@@H](O)[C@@H](OC)C(=O)[C@H](C)C[C@H](C)/C=C/C=C/C=C/1C | 34.4% |
| C1=N/C2=N/c3ccc(OCCN4CCCC4)c(c3)COC/C=C/COCc3cccc(c3)C(=C1)N2 | 34.6% |
| Cc1cc(C)c(/C=C2\C(=O)Nc3ccccc32)[nH]1 | 98.2% |
| Cc1cnc(-c2cnc(NCCNc3ccc(C#N)cn3)nc2-c2ccc(Cl)cc2Cl)[nH]1 | 105% |
| COc1ccc2c(Oc3ccc(NC(=O)c4c(C)n(CC(C)(C)O)n(-c5ccccc5)c4=O)nc3)ccnc2c1 | 82.1% |

Block 3
Structure (SMILES): CC(C)n1cnc(-c2ccc(F)cc2)c1-c1ncc(C(=O)Nc2ccc(N3CCN(C)CC3)cc2)[nH]1
Method: phase 2a trial
Species: idiopathic pulmonary fibrosis patients
| dose | setting | patients with AST increased [%] |
| --- | --- | --- |
| 30 mg once daily | adverse event grade 3 | 0 |
| 30 mg once daily | adverse event grade 1 | 1 |
| 60 mg once daily | adverse event grade 2 | 1 |

Block 4
SMILES: CS(=O)(=O)N1CCCC(NC(=O)[C@H](CCC2CCCCC2)NC(=O)c2ccc(CNC(=O)c3cnc4ccccn34)cc2)C1 (some centres unmarked)
Read-out: cell-free assay
Method: competition with immobilised ligand
Concentration: 0.1 µM
| target | remaining binding [%] |
| --- | --- |
| NLK (Homo sapiens, UniProt Q9UBE8) | 100 |
| TGFBR2 (Homo sapiens, UniProt P37173) | 91 |
| TNNI3K (Homo sapiens, UniProt Q59H18) | 89 |
| PIK3C3 (Homo sapiens, UniProt Q8NEB9) | 100 |
| PIP5K1A (Homo sapiens, UniProt Q99755) | 89 |
| KIT (Homo sapiens, UniProt P10721) | 63 |
| HIPK2 (Homo sapiens, UniProt Q9H2X6) | 100 |
| ACVRL1 (Homo sapiens, UniProt P37023) | 96 |
| ACVR1B (Homo sapiens, UniProt P36896) | 96 |
| MST1R (Homo sapiens, UniProt Q04912) | 100 |
| GSK3B (Homo sapiens, UniProt P49841) | 100 |
| TAOK3 (Homo sapiens, UniProt Q9H2K8) | 83 |
| NTRK2 (Homo sapiens, UniProt Q16620) | 87 |
| DCLK2 (Homo sapiens, UniProt Q8N568) | 100 |
| EPHA1 (Homo sapiens, UniProt P21709) | 93 |

Repeated from above (block 4):
| target | remaining binding [%] |
| --- | --- |
| ACVRL1 (Homo sapiens, UniProt P37023) | 96 |
| ACVR1B (Homo sapiens, UniProt P36896) | 96 |
| MST1R (Homo sapiens, UniProt Q04912) | 100 |
| GSK3B (Homo sapiens, UniProt P49841) | 100 |
